Results of several laboratories.
Lines come from different studies, so protocols differ. ± marks the error that the study gave.
Organism: Staphylococcus aureus

| Structure (SMILES) | system | conditions | inhibition zone diameter [mm] |
| --- | --- | --- | --- |
| Cc1ncc([N+](=O)[O-])n1CCOCc1nnc(SCC(=O)c2ccc(Cl)cc2)o1 | DMSO | 60 µg/mL, 24 h, 37 °C | 15 to 20 |
| COc1c2c(cc3oc(=O)cc(-c4ccccc4)c13)C(=O)c1cc(C)cc(O)c1C2=O | MTCC 96 | 100 µg/disc | 12 |
| Fc1ccc(CSc2nnc(C34CC5CC(CC(C5)C3)C4)n2-c2ccccc2)cc1 | IFO 3060 | 200 µg/disc, 24 h, 37 °C | 16 |
| CCOC(=O)C1=C(C)NC2=C(C(=O)CC(C)(C)C2)C1c1ccc(OCC(=O)NN=Cc2cc(Br)c(O)c(Br)c2)cc1OCC(=O)NN=Cc1cc(Br)c(O)c(Br)c1 (stereo not drawn) | 6538P | concentration not given, 24 h, 37 °C | 10.9 ± 0.2 |
| COc1cc(OC)c2c(c1)C(=O)c1cc3oc(=O)cc(-c4ccccc4)c3c(O)c1C2=O | MTCC 96 | 100 µg/disc | 10 |
| CCN1CCN(Cn2nc(C34CC5CC(CC(C5)C3)C4)n(-c3ccccc3)c2=S)CC1 | IFO 3060 | 200 µg/disc, 24 h, 37 °C | 15 |
| Cc1ncc([N+](=O)[O-])n1CCOCc1nnc(SCC(=O)c2ccc([N+](=O)[O-])cc2)o1 | DMSO | 60 µg/mL, 24 h, 37 °C | 15 to 20 |
| Cc1c2c(cc3oc(=O)cc(-c4ccccc4)c13)C(=O)c1cccc(O)c1C2=O | MTCC 96 | 100 µg/disc | 8 |
| COc1ccccc1N1CCN(Cn2nc(C34CC5CC(CC(C5)C3)C4)n(-c3ccccc3)c2=S)CC1 | IFO 3060 | 200 µg/disc, 24 h, 37 °C | 22 |
| Cc1ncc([N+](=O)[O-])n1CCOCc1nnc(SCC(=O)c2ccc(Br)cc2)o1 | DMSO | 60 µg/mL, 24 h, 37 °C | 15 to 20 |
| Cn1c(SCCN2CCCCC2)nnc1C12CC3CC(CC(C3)C1)C2 | IFO 3060 | 200 µg/disc, 24 h, 37 °C | 15 |
| CC(=O)[O-].O.O.[O-]c1ccc(Br)cc1C=NCCN1CCOCC1.[Zn+2] |  | 20 µL of 100 µM per disc | 19 |

Excerpt of the above:
| Structure (SMILES) | system | conditions | inhibition zone diameter [mm] |
| --- | --- | --- | --- |
| COc1cc(OC)c2c(c1)C(=O)c1cc3oc(=O)cc(-c4ccccc4)c3c(O)c1C2=O | MTCC 96 | 100 µg/disc | 10 |
